Measured values collected from several papers.
Numbers after ± are the reported error.
Technique: steady-state kinetics
B1: GTPBP3 N259A (Homo sapiens, UniProt Q969Y2); chain TRRSSGAPAPGSGATIFALSSGQGRCGIAVIRTSGPASGHALRILTAPRDLPLARHASLRLLSDPRSGEPLDRALVLWFPGPQSFTGEDCVEFHVHGGPAVVSGVLQALGSVPGLRPAEAGEFTRRAFANGKLNLTEVEGLADLIHAETEAQRRQALRQLDGELGHLCRGWAETLTKALAHVEAYIDFGEDDNLEEGVLEQADIEVRALQVALGAHLRDARRGQRLRSGVHVVVTGPPAAGKSSLVNLLSRKPVSIVSPEPGTTRDVLETPVDLAGFPVLLSDTAGLREGVGPVEQEGVRRARERLEQADLILAMLDASDLASPSSCNFLATVVASVGAQSPSDSSQRLLLVLNKSDLLSPEGPGPGPDLPPHLLLSCLTGEGLDGLLEALRKELAAVCGDPSTDPPLLTRARHQHHLQGCLDALGHYKQSKDLALAAEALRVARGHLTRLTGGGGTEEILDIIFQDFCVGK
B2: enzyme A178R/D177A/M179S/P184R (Levilactobacillus brevis, UniProt Q03Q85); chain MKVTVVGCTHAGTFAIKQILAEHPDAEVTVYERNDVISFLSCGIALYLGGKVADPQGLFYSSPEELQKLGANVQMNHNVLAIDPDQKTVTVEDLTNHAQTTESYDKLVMTSGSWPIVPKIPGIDSDRVKLCKNWAHAQALIEDAKEAKRITVIGAGYIGAELAEAYSTTGHDVTLIARSARVMRKYFDADFTDVIEQDYRDHGVQLALGETVESFTDSATGLTIKTDKNSYETDLAILCIGFRPNTDLLKGKVDMAPNGAIITDDYMRSSNPDIFAAGDSAAVHYNPTHQNAYIPLATNAVRQGILVGKNLVKPTVKYMGTQSSSGLALYDRTIVSTGLTLAAAKQQGLNAEQVIVEDNYRPEFMPSTEPVLMSLVFDPDTHRILGGALMSKYDVSQSANTLSVCIQNENTIDDLAMVDMLFQPNFDRPFNYLNILAQAAQAKVAQSVNA
B3: TcA (Trypanosoma cruzi, UniProt Q4DRC4); chain MFIRLFAREEEGEKEGKICHMPREYEFAEKILFTEEEIRTRIKEVAKRIADDYKGKGLRPYVNPLVLISVLKGSFMFTADLCRALCDFNVPVRMEFICVSSYGEGLTSSGQVRMLLDTRHSIEGHHVLIVEDIVDTALTLNYLYHMYFTRRPASLKTVVLLDKREGRRVPFSADYVVANIPNAFVIGYGLDYDDTYRELRDIVVLRPEVYAEREAARQKKQRAIGSADTDRDAKREFHSKY
B4: protein (Planktothrix agardhii, UniProt F5B6Z0); chain MIVNVIQKDRLKEQKLQFIRNHQQAFDVEPIYPLPLFEDFVTSIEGDCSLEASCKIESDKLIASRFLLFFEDKTQEWQKYLHQSLTFFGLVENRVGVKINYSLLQQFLGSSFDFSKVTVLSAGIDLRNNLAESSLKMHIRIKDYPEKLDKAFALSDGAADGNYLKDFVNLIGFDFYFNGKSEIEIYAEVQEDDFFKPEINNLVWQHFPKTALQPLKASSLFFTGLSKANNNPVLYYHLKNRQDLTNYFKLNDTAQRVHSFYQHQDILPYMWVGTAQKELEKTRIENIRLYYYKSFKMESN
B5: sacB S422A (Priestia megaterium, UniProt D5DC07); chain KGNDSKDFNNSYGISHITRDNMVKIPQQQNSDQFKVPAFDESTIKNIASAKGKNASGNTIDLDVWDSWPLQNADGTVATYHGYQIVFALAGDPKDSNDTSVYLFYKKAGDKSIDSWKNAGRVFKDSDKFVPNDPHLKNQTQEWSGSGTLTKDGKVRLFYTDYSGKQYGKQTLTTAQVNMSQPNDNTLKVDGVEDYKSIFDGDGKIYQTVQQFIDEGGYDTGDNHTLRDPHYIEDNGHKYLVFEANTGTEDGYQGEDSLYNRAYYGGNNPFFQSEKKKLLEGSNKEKASLANGALGIIELNDDYTLKKVMKPLITSNTVTDEIERANIFKKDGKWYLFTDSRGSKMTIDGIGQDDVYMLGYVSNTLTGKYKPLNDTGLVLHMDLDPNDKTFTYAHFAVPQTKGDNVVITSYMTNRGFYEDNHSTFAPSFLVNIDGSKTSVVKDRVLEQGQLTVDED
B6: PRP43 R159A (Saccharomyces cerevisiae, UniProt P53131); chain MGSKRRFSSEHPDPVETSIPEQAAEIAEELSKQHPLPSEEPLVHHDAGEFKGLQRHHTSAEEAQKLEDGKINPFTGREFTPKYVDILKIRRELPVHAQRDEFLKLYQNNQIMVFVGETGSGKTTQIPQFVLFDEMPHLENTQVACTQPRRVAAMSVAQAVAEEMDVKLGEEVGYSIRFENKTSNKTILKYMTDGMLLREAMEDHDLSRYSCIILDEAHERTLATDILMGLLKQVVKRRPDLKIIIMSATLDAEKFQRYFNDAPLLAVPGRTYPVELYYTPEFQRDYLDSAIRTVLQIHATEEAGDILLFLTGEDEIEDAVRKISLEGDQLVREEGCGPLSVYPLYGSLPPHQQQRIFEPAPESHNGRPGRKVVISTNIAETSLTIDGIVYVVDPGFSKQKVYNPRIRVESLLVSPISKASAQQRAGRAGRTRPGKCFRLYTEEAFQKELIEQSYPEILRSNLSSTVLELKKLGIDDLVHFDFMDPPAPETMMRALEELNYLACLDDEGNLTPLGRLASQFPLDPMLAVMLIGSFEFQCSQEILTIVAMLSVPNVFIRPTKDKKRADDAKNIFAHPDGDHITLLNVYHAFKSDEAYEYGIHKWCRDHYLNYRSLSAADNIRSQLERLMNRYNLELNTTDYESPKYFDNIRKALASGFFMQVAKKRSGAKGYITVKDNQDVLIHPSTVLGHDAEWVIYNEFVLTSKNYIRTVTSVRPEWLIEIAPAYYDLSNFQKGDVKLSLERIKEKVDRLNELKQGKNKKKSKHSKK
B7: BshA (Bacillus subtilis, UniProt P42982); chain MRKLKIGITCYPSVGGSGIIATELGKQLAEKGHEIHFITSSIPFRLNTYHPNIHFHEVEVNQYAVFKYPPYDLTLASKIAEVAERENLDIIHAHYALPHAVCAYLAKQMLKRNIGIVTTLHGTDITVLGYDPSLKDLIRFAIESSDRVTAVSSALAAETYDLIKPEKKIETIYNFIDERVYLKKNTAAIKEKHGILPDEKVVIHVSNFRKVKRVQDVIRVFRNIAGKTKAKLLLVGDGPEKSTACELIRKYGLEDQVLMLGNQDRVEDLYSISDLKLLLSEKESFGLVLLEAMACGVPCIGTNIGGIPEVIKNNVSGFLVDVGDVTAATARAMSILEDEQLSNRFTKAAIEMLENEFSSKKIVSQYEQIYADLAEPE
B8: protein (Adiantum capillus-veneris, UniProt A0A4Y6I289); chain MTDAVENKQVEFGALEVEGIKFAPSVAALGSTKQLVLGGAGFRGLEISGNLVKFTAIGIYVDEAIIPHLSPKLHGKSIEELCNNELLFEEVLAAPFEKLVRVVFLLPLTGPQYSEKVVERMGLLPNPGIKEESTKQFLEIFKPENFPPRTSLICSFTEEALKVAFMKTDDFPEDADAVIEDKWLARAFLASIIGKDGVSPLAKLSFAERMSRCL
B9: ycjS (Escherichia coli, UniProt P77503); chain MKSAMTSSPLRVAIIGAGQVADKVHASYYCTRNDLELVAVCDSRLSQAQALAEKYGNASVWDDPQAMLLAVKPDVVSVCSPNRFHYEHTLMALEAGCHVMCEKPPAMTPEQAREMCDTARKLGKVLAYDFHHRFALDTQQLREQVTNGVLGEIYVTTARALRRCGVPGWGVFTNKELQGGGPLIDIGIHMLDAAMYVLGFPAVKSVNAHSFQKIGTQKSCGQFGEWDPATYSVEDSLFGTIEFHNGGILWLETSFALNIREQSIMNVSFCGDKAGATLFPAHIYTDNNGELMTLMQREIADDNRHLRSMEAFINHVQGKPVMIADAEQGYIIQQLVAALYQSAETGTRVEL

B1 (GTPBP3 N259A)
kcat/Km (Nc1nc2c(ncn2[C@@H]2O[C@H](COP(=O)(O)OP(=O)(O)OP(=O)(O)O)[C@@H](O)[C@H]2O)c(=O)[nH]1; pH 8, 37 °C, KCl 300 mM): 108 M⁻¹ s⁻¹

B2 (enzyme A178R/D177A/M179S/P184R)
kcat/Km (NC(=O)C1=CN([C@@H]2O[C@H](COP(=O)(O)OP(=O)(O)OC[C@H]3O[C@@H](n4cnc5c(N)ncnc54)[C@H](O)[C@@H]3O)[C@@H](O)[C@H]2O)C=CC1; pH 7.5, 37 °C, per site): 430000 ± 90000 M⁻¹ s⁻¹

protein (Enterobacter lignolyticus, UniProt E3G9I4)
kcat/Km (CCn1c(=NN=c2sc3cc(S(=O)(=O)O)ccc3n2CC)sc2cc(S(=O)(=O)O)ccc21; pH 3.5, 25 °C, with: H2O2): 5.8e+06 ± 100000 M⁻¹ s⁻¹

B3 (TcA)
kcat/Km (Nc1nc2nc[nH]c2c(=O)[nH]1; pH 8.3, 37 °C, apparent, with: PRPP 1 mM, MgCl2 12 mM): 1.7e+06 ± 100000 M⁻¹ s⁻¹

B4 (protein)
kcat/Km (CC(C)=CCOP(=O)(O)OP(=O)(O)O; with: tri-Tyr peptide acceptor): 450 M⁻¹ s⁻¹

B5 (sacB S422A)
kcat/Km (OC[C@H]1O[C@@](CO)(O[C@H]2O[C@H](CO)[C@@H](O)[C@H](O)[C@H]2O)[C@@H](O)[C@@H]1O; pH 6.6): 4910 M⁻¹ s⁻¹

enzyme (Thermus thermophilus, UniProt Q5SJ64)
kcat/Km (Nc1nc2c([nH]c(=O)n2[C@H]2C[C@H](O)[C@@H](COP(=O)(O)OP(=O)(O)OP(=O)(O)O)O2)c(=O)[nH]1; pH 7.5, 37 °C): 6500 ± 1000 M⁻¹ s⁻¹

B6 (PRP43 R159A)
kcat/Km (Nc1ccn([C@@H]2O[C@H](COP(=O)(O)OP(=O)(O)OP(=O)(O)O)[C@@H](O)[C@H]2O)c(=O)n1; pH 8, KCl 100 mM, without Pfa1, with: polyA 0.2 mM, magnesium acetate 2.5 mM): 6500 ± 1300 M⁻¹ s⁻¹

B7 (BshA)
kcat/Km (CC(=O)N[C@H]1[C@@H](OP(=O)(O)OP(=O)(O)OC[C@H]2O[C@@H](n3ccc(=O)[nH]c3=O)[C@H](O)[C@@H]2O)O[C@H](CO)[C@@H](O)[C@@H]1O; pH 7.5, 21 °C, with: malate 0–25 mM): 16000 M⁻¹ s⁻¹

B8 (protein)
kcat/Km (O=C(/C=C/c1ccc(O)cc1)c1c(O)cc(O)cc1O): 1.6e+06 M⁻¹ s⁻¹

B9 (ycjS)
kcat/Km (CO[C@H]1O[C@H](CO)[C@@H](O)C(=O)[C@H]1O; pH 7, 30 °C, with: NADH 0.3 mM): 23100 ± 2800 M⁻¹ s⁻¹

Repeated from above:
B5 (sacB S422A)
kcat/Km (OC[C@H]1O[C@@](CO)(O[C@H]2O[C@H](CO)[C@@H](O)[C@H](O)[C@H]2O)[C@@H](O)[C@@H]1O; pH 6.6): 4910 M⁻¹ s⁻¹
